# Experimental data of several laboratories.
# Every numbered part comes from another study and shows a few of its results, in no order.

# Study 1
# Target: Sal-like protein 4, full length isoform B (SALL4, Homo sapiens, UniProt Q9UJQ4-2, residues 1-616)
# Technique: universal PBM
# Molecule type: double-stranded DNA, one strand shown
# Sample: in vitro
# Tested at: not given
# Setting: 8-mer, flanks averaged, mean of replicates
# Reading: higher = stronger binding
Sequence,E-score
ATAACCCA,0.255
GATCCGGC,-0.201
ACGCACTG,-0.183
CCGAAGAG,-0.0984
ACGTCACA,0.00452
ACTCTACA,-0.0763
CAATATTG,0.391
AGCTCTAG,-0.0451

# Study 2
# Target: Centromere-binding protein 1, full length, His-tagged (CBF1, Saccharomyces cerevisiae, UniProt P17106, residues 1-351)
# Sequence of UniProt P17106 (whole entry, looked up): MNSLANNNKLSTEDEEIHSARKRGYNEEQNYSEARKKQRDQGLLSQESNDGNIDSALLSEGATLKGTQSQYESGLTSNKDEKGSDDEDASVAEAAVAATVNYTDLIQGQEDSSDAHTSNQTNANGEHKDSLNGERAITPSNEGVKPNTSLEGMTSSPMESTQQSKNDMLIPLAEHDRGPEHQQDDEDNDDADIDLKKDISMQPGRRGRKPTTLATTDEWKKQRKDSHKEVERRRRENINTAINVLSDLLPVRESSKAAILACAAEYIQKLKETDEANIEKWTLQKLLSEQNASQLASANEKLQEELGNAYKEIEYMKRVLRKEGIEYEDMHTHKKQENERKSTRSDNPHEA
# Technique: competition protein-binding microarray
# Molecule type: double-stranded DNA, one strand shown
# Sample: in vitro
# Tested at: 2 µM
# Setting: whole 60-bp probe, lowest competitor level
# Together with: Pho4 competitor, 0.05 µM
# Reading: higher = stronger binding
# All sequences stand within: … GTCTTGATTCGCTTGACGCTGCTG
Sequence,fluorescence intensity
TAAGGCCTCGGCTGGCACATGAGTCGCCGGAGGAGG,52.2 a.u.
GTATTCAAGCAAGTACACGTGCGGAAGTTGTACCAG,1320 a.u.
CTAACGAAGGTTTCGCACGTGTTTTACAAGCCAAGT,1470 a.u.
TCATGATAGACTTTGTGCGTGGACCCCAAGCCAAAG,80.3 a.u.
CTTTCCCGATCTTGTTTGGTGGGTGTAGCACATTTG,87.1 a.u.
TCAGAAAAGACCATTTGCGTGCTTTTACCATTATGC,72.5 a.u.
TAAGAGGAATGGGTGCTCGTGTCCTGGTTACCGAAA,65.6 a.u.
CGGCCTGCAATGTTCCACGTGGACCACTCATCAAAC,546 a.u.

# Study 3
# Cell line: HEK-293T
# Observed: pseudovirus infection
# Technique: FDA-approved drug library screen
# Organism: VSV pseudotyped with SARS-CoV-2 spike
# Tested at: 10 µM
# Time: 16 h
# Relative to: vehicle-treated
Structure (SMILES),GFP-positive cells
C[C@H](CCC(=O)O)[C@H]1CC[C@H]2[C@@H]3[C@@H](O)C[C@@H]4C[C@H](O)CC[C@]4(C)[C@H]3CC[C@]12C,93%
CC(C)(Oc1ccc(C(=O)c2ccc(Cl)cc2)cc1)C(=O)O,102%
CC(=O)Nc1c(I)c(NC(C)=O)c(I)c(C(=O)O)c1I,80.1%

# Study 4
# Target: RING finger protein unkempt homolog, zinc fingers 1-6, SBP tag (UNK, Homo sapiens, UniProt Q9C0B0, residues 30-357)
# Sequence of UniProt Q9C0B0 (30-357, looked up): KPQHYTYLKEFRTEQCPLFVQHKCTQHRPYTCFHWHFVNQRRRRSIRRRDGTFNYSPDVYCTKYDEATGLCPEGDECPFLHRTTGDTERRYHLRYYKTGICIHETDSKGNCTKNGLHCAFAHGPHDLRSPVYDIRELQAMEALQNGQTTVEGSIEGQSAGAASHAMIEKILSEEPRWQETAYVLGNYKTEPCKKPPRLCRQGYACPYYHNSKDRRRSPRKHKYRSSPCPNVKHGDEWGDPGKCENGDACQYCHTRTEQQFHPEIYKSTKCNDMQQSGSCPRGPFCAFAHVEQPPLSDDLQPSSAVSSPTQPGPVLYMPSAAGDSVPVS
# Technique: RNA Bind-n-Seq
# Molecule type: RNA
# Sample: in vitro
# Tested at: 100 nM
# Setting: RNA with constant flanks, vertebrate orthologous sites, ends assumed
# Relative to: input RNA pool
# Reading: higher = stronger binding
# All sequences stand within: GGGAGUUCUACAGUCCGACGAUC … CAACAGAGGAUUGAGCAUCA
Sequence,bound/input enrichment [ratio]
GAACCUAAACUUAUAGCAAAAGAGCCAAGCAGUAGCAGUUUUUGUAAAUGUAAAAAUAAUUAGAUCCAGACUUUGUUUCCUUCAAUUUUAAAAAUAAAAAAUACCUCAGUGCUAUGUUUU,1.03
UCUGGUGCCCCCCACUGUGAGAAAAUGGGGGAAGCUCAAUGACCCUCAGCUGUUCCAAUCUAGUAUUUUGUUUUCUUUUUUAAAAUUACUGUAUUUAUUAUGACGAUGGUGACUCCCCAG,0.801
CUCAGAAGAGCUGCAUAGGGUCCUGUUCUCCGUAGAACACUCUGUCUCUGUUCUGUGGCCCUCGGGGUGCGGCAGGGGUGGCGGUGCGCCCCAGCCCUGAGGCUCGAGUGUGUGUGGCUC,0.38
AGGGACGCUUUGAUGUAAAAAUUGAAGUUAAGAGCUGAUCACAAGCACAAAUCUUUCCCACUAGCCAUUUAAUAAGUUAAAAAAGAUACAAAACAAAACCUACUAGUCUUGAACAAACUG,1.65
UUUUGUUUGUUUUGCACAUGACAGUGUGUGUAUUGAUCUGAGGAAGGAGGAGGGUUGCUGGCACAGUUGCCUUCCAGUGCACCCCAGCCUCACCACCCCAGCUGGUAUCUUUGCCACGUU,0.214
UCCUCAACUUGUUCUAGCUUGUGAUCCUUCAAAUUUGGAUCAUGCAUUAGUGCUAGAUUCUAGAAAUUUUCUCUUCUCUUUCGACUGAUCAGAGAAACAUGCAUUAAAAACAAAUACAGG,1.36
AGUAGUUGUAAGCUUGUUUGCACAGUUCUUUUUUUCCAUUGGAAAUGGAAUUCAUUGCCUUAGGUCUUUUUAAAUAGUGUAUUAUCGUUGGGGCUGGCUCUGUGCUUGAAAACCAGUUUA,2.88
UUAAAGUCAUUUUUUUCACGUUUCCUGUAAAUAAUGGAUAAUCAUUUUUAUUUUAUUUUUAAGUGCUGUUUUAACAAUGUGGAUAGACCAUAAAUGUACUUGCUGAAUUCAUUCAUUUUU,0.237

# Study 5
# Target: Replicase polyprotein 1ab, polymerase (rep, Severe acute respiratory syndrome coronavirus 2, UniProt P0DTD1)
# Observed: enzyme activity
# Mode: inhibitor
# Tested at: 20 µM
SMILES,inhibition [%]
CCCCCCCC/C=C/C(=O)O,2.13
NCC1(CC(=O)O)CCCCC1,-2.29
NCCc1cc(O)c(O)cc1O,34.9
COc1cc(O)c(C(=O)c2ccccc2)cc1S(=O)(=O)O,-3.01
O=C(O)c1cc(/N=N/c2ccc(S(=O)(=O)Nc3ccccn3)cc2)ccc1O,29.3
O=C(NCCS(=O)(=O)c1ccc(C(F)(F)F)cn1)c1ccc(Cl)cc1,-13.4
CO/N=C1\CN(c2nc3c(cc2F)c(=O)c(C(=O)O)cn3C2CC2)CC1CN (centres unmarked),3.26
CC(C)(C)c1ccc(CN(Cc2cccc(OCC(=O)O)c2)S(=O)(=O)c2cccnc2)cc1,0.17
COc1nc2ccc(Br)cc2cc1[C@@H](c1ccccc1)[C@@](O)(CCN(C)C)c1cccc2ccccc12,-2.34
CCCN(CCC)C1CCc2cccc(O)c2C1 (centres unmarked),-2.59
CNC(=O)[C@H]1O[C@@H](n2cnc3c(NCc4cccc(I)c4)nc(Cl)nc32)[C@H](O)[C@@H]1O,32.7
Oc1ccc2c3c1O[C@H]1c4oc5ccccc5c4C[C@@]4(O)[C@@H](C2)N(CC2CC2)CC[C@]314,2.7
c1ccc(OCc2ccc(CCCN3CCOCC3)cc2)cc1,-13.1
CNc1nc(NCc2ccc(NS(C)(=O)=O)cc2Cl)cc(-c2ccccn2)n1,4.12
COc1cc(OCc2cccc(-c3ccccc3)c2C)cc(OC)c1CN1CCCC[C@H]1C(=O)O,2.25
O=C(NO)C1(CS(=O)(=O)c2ccc(Oc3ccc(Cl)cc3)cc2)CCOCC1,-4.98
NC(=O)C[C@H](N)C(=O)O,0.57
Clc1ccc(Cn2c(CN3CCCC3)nc3ccccc32)cc1,3.79
Cc1cc2nc3c(=O)[nH]c(=O)nc-3n(C[C@H](O)[C@H](O)[C@H](O)COP(=O)(O)O)c2cc1C,16.7
Oc1ccccc1,-0.43
O=c1ncn2nc(Sc3ccc(F)cc3F)ccc2c1-c1c(Cl)cccc1Cl,0.55
O=C(c1cncc(Br)c1)N1CCC(N2CCCC2)CC1,-4.85
CN(C)CC/C=C1/c2ccccc2Sc2ccc(Cl)cc21,-3.38
C=CCNc1c(O)cc2c(O)c1C[C@@H](C)C[C@H](OC)[C@H](O)[C@@H](C)/C=C(\C)[C@H](OC(N)=O)[C@@H](OC)/C=C\C=C(/C)C(=O)N2,1.09
C#C[C@]1(OC(C)=O)CC[C@H]2[C@@H]3CCC4=CC(=NO)CC[C@@H]4[C@H]3CC[C@@]21CC (mixture of isomers),-17.8

# Further values, each from its own experiment
SMILES,target,test,setting,measurement,value
CN(C)c1ccc2c(c1)Sc1cc(N(C)C)ccc1N2,"Replicase polyprotein 1ab, main protease (rep, Severe acute respiratory syndrome coronavirus 2, UniProt P0DTD1)","enzyme activity, inhibitor","20 µM, hit confirmation",inhibition,47.2%

# Excerpt of the above (study 2):
Sequence,fluorescence intensity
TAAGGCCTCGGCTGGCACATGAGTCGCCGGAGGAGG,52.2 a.u.
GTATTCAAGCAAGTACACGTGCGGAAGTTGTACCAG,1320 a.u.
CTAACGAAGGTTTCGCACGTGTTTTACAAGCCAAGT,1470 a.u.
